Experimental data from different studies.
Parts stem from different laboratories: compare values within a part only. Positions count from the first letter of the parent shown.
Sequence of UniProt P33981 (whole entry, looked up): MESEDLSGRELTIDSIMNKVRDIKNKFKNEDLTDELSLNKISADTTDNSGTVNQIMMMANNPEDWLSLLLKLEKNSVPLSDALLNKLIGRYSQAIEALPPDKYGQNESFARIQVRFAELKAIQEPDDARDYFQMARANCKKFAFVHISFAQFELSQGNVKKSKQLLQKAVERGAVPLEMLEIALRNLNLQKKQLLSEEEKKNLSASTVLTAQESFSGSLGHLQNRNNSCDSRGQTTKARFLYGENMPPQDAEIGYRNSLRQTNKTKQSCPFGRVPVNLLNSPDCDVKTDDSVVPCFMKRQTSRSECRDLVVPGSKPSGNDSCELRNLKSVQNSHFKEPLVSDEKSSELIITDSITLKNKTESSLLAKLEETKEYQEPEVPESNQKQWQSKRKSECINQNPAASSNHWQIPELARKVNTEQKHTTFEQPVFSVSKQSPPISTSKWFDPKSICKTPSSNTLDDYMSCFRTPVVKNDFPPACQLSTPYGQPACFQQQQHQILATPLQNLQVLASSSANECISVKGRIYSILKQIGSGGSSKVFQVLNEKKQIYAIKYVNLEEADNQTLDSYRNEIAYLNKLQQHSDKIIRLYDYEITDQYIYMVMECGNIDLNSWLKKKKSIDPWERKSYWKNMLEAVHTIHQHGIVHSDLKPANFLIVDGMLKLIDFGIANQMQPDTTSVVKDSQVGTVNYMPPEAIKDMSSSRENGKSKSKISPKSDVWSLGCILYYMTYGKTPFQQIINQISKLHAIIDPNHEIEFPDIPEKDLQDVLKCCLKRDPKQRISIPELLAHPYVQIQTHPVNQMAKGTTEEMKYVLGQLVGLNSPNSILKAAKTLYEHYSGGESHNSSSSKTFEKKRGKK
Sequence of UniProt O75676 (whole entry, looked up): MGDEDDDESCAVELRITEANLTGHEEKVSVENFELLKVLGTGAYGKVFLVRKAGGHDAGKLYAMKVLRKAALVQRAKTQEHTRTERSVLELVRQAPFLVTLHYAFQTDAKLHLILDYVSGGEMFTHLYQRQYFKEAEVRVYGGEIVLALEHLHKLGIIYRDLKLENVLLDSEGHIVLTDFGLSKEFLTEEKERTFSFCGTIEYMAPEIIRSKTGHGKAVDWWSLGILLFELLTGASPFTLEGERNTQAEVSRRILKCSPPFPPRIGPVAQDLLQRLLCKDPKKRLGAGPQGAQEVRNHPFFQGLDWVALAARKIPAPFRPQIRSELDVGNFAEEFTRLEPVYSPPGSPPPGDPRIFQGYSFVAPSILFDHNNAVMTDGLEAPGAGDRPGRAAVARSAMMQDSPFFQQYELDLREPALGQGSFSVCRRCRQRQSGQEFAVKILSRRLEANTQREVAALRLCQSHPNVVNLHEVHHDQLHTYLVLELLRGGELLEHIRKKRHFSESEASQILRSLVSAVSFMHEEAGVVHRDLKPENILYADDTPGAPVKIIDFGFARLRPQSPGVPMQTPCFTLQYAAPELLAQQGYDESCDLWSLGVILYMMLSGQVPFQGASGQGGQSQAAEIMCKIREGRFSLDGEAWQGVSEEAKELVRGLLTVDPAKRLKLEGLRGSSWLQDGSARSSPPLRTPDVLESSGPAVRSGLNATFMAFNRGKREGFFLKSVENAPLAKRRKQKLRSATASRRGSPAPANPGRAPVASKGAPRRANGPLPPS
Sequence of UniProt Q13233 (whole entry, looked up): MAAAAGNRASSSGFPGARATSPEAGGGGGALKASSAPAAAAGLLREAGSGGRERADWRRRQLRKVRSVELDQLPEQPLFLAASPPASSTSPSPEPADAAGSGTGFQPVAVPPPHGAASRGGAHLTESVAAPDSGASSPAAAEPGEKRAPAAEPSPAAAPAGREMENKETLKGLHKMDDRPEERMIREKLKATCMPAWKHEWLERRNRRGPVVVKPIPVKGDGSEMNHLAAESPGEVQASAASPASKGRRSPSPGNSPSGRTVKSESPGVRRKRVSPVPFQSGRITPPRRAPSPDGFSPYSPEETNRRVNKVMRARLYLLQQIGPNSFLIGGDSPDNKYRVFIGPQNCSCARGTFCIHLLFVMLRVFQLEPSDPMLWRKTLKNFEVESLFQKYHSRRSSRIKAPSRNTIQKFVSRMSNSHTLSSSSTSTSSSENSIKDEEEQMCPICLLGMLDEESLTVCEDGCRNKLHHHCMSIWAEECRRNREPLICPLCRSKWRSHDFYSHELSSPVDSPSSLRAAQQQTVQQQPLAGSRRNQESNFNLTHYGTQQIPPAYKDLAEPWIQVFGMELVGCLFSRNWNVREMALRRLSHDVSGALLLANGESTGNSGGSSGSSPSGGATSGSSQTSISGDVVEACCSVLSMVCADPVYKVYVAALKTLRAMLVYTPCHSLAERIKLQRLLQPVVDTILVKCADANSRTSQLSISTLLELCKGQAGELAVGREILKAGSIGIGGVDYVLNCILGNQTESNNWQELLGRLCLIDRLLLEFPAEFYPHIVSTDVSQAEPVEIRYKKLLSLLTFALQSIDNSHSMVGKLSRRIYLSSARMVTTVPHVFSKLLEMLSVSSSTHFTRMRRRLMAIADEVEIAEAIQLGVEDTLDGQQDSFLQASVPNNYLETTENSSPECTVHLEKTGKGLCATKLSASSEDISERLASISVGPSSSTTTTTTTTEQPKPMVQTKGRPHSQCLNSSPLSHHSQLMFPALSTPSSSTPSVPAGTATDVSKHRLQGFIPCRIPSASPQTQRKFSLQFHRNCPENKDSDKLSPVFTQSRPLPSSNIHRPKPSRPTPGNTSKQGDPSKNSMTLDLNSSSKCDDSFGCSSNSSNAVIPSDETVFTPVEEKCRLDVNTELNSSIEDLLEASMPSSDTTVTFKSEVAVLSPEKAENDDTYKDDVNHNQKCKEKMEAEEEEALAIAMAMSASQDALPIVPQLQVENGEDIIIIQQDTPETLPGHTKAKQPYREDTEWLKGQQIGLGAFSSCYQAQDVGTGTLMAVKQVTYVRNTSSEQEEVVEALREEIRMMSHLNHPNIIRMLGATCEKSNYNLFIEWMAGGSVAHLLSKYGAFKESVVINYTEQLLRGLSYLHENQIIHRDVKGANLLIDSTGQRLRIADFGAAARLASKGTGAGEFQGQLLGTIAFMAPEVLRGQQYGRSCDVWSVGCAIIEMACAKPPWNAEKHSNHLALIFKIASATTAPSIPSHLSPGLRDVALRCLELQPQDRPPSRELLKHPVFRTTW
Sequence of UniProt Q86UX6 (whole entry, looked up): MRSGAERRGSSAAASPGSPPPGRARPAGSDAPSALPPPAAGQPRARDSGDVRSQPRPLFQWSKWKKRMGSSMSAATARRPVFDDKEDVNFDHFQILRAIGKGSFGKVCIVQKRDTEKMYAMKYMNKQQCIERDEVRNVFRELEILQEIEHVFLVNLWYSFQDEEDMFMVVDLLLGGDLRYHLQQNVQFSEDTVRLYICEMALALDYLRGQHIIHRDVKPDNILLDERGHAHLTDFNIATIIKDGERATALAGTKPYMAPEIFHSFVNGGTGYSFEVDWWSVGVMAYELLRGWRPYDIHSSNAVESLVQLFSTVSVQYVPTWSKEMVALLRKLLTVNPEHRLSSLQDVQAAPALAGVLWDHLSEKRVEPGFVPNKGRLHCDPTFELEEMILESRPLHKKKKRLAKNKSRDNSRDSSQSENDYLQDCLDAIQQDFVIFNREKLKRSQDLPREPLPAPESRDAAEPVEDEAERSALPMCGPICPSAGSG
Sequence of UniProt O15111 (whole entry, looked up): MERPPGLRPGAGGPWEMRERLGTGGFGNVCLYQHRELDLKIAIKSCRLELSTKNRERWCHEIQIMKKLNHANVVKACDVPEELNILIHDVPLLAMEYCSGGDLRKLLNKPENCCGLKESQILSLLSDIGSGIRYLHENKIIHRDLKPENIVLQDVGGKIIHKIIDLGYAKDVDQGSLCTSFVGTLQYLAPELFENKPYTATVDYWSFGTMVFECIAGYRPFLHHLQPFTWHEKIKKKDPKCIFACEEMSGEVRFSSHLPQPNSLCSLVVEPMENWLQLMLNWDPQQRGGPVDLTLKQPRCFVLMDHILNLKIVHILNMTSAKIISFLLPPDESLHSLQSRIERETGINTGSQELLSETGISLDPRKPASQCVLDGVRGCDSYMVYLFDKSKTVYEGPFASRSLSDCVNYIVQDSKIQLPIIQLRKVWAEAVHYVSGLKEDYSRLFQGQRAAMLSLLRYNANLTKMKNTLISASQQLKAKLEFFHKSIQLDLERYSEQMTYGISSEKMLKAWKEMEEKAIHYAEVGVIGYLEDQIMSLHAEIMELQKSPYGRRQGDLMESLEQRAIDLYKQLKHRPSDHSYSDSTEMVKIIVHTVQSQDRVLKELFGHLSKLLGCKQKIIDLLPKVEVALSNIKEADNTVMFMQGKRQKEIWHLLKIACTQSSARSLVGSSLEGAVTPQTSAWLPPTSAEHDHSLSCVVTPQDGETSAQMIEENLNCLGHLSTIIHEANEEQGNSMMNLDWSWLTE

Series 1
Compound: C[C@H](c1ccc(F)cc1)N(Cc1cccc(C(=O)O)c1)C(=O)c1cnc2ccccc2c1
Read-out: cell-free assay
Technique: competition with immobilised ligand
Concentration: 1 µM
| target | remaining binding |
| --- | --- |
| STK32C (Homo sapiens, UniProt Q86UX6) | 100% |
| Ribosomal protein S6 kinase alpha-4, N-terminal kinase domain (RPS6KA4, Homo sapiens, UniProt O75676) | 85% |
| CHUK (Homo sapiens, UniProt O15111) | 93% |
| TTK (Homo sapiens, UniProt P33981) | 100% |
| MAP3K1 (Homo sapiens, UniProt Q13233) | 100% |

Series 2
Target: RNA binding protein fox-1 homolog 2, RRM domain, GST-SBP tag (RBFOX2, Homo sapiens, UniProt O43251-10, residues 100-194)
Technique: RNA Bind-n-Seq
Molecule type: RNA
Medium: in vitro
Concentration: 365 nM
Setting: natural RNA segment, single round, ends assumed
Reference: no-protein control
Direction: higher = stronger binding
Shared flanks, not repeated: GGGAGUUCUACAGUCCGACGAUC … UGGAAUUCUCGGGUGCCAA
Construct (chain): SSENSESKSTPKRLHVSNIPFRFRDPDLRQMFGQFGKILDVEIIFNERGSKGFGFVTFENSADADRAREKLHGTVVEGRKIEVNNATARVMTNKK
| Oligonucleotide | RBNS enrichment (R) |
| --- | --- |
| ACCCUGCUUACUAGGUUGUUCAUUCAUCCGUUUCUUGAGAGCUCCUAACUCCUGCAUCUCCUCAAGGGUGUUUCCUCCCUCCUCCCACAGCCUCAAGGACACACUUUCCA | 0.683 |
| GUUGGGCAUUCAAGGGAAUGGAAGAAAACAAACCACAUGCCUUUAACAGAUGAACUGUAAUGACGACCUGCUAACUGCUAGCCUUCAGCGCUAUCUGUUCCCUCACACAG | 0.417 |
| UCCUGUAAUGCUGCUGCCCCUCCUUCCUGGGCAGCUCUACUGGGGAGAUGAGAAGCUCUUGAUCCAAUCCCUGUGCAGCAUCAAGAAGCCCAGGAAGCUGGCCCAGGCCU | 0.472 |
| AGGAGGGUGCACAUAACCCUUACCCUACCUCUGCCAAAAAGUGGGGGCUGUACUGGGGACUGCUCGGAUGAUCUUUCUUAGUGCUACUUCUUUCAGCUGUCCCUGUAGCG | 0.412 |
| CGAUGCCUUGGGCAGGGUUUCCCCCUUUUCAGAAUACAGGGUGUAAAGUCCAGCCUAUUACAAACAAACAAACAAACAAACAAACAAAGGACCUCCAUUUGGAGAAUUGC | 0.44 |
| UCUAGGGAUCCAGUUGUGCAGUAGAGUUCAGACUUCUCAUCCAAUCUUAUAUUGUAGGCAUUUCUCAAGUGUUUUAGAUAUUAAUAACUAACAUUGGGAUUUUACUUUGC | 0.294 |
| CUUGAUUUUUUUCAAGUGUGGUAUUCAUUUUUAACCCAUUUCCGCUUUAGGUCUUCCUGGUUUUUCAUAGUCAACAUUCCACUGAAAUGUACAUAGAAUUGCCAGUGUAU | 0.451 |
| CGUGACUGUUUUAAAACACCAUAAUGAAUGUAUAAUUAAUUUAUGUUCAAGUAUUAAUAUUGUUACAAGGGAAAAGUAAUAUUAGGAUUGUUUGCUCUCCUGUCUGCCCC | 0.731 |

Series 3
Target: CCND2, cyclin fold, Cln2 fusion (human)
Technique: yeast growth competition, sequencing
Medium: yeast
Setting: weak parent motif
Reference: not given
Direction: higher = stronger binding
Starting sequence: SAMHD1 docking peptide (human); ASKSRVQLFKDDP; partner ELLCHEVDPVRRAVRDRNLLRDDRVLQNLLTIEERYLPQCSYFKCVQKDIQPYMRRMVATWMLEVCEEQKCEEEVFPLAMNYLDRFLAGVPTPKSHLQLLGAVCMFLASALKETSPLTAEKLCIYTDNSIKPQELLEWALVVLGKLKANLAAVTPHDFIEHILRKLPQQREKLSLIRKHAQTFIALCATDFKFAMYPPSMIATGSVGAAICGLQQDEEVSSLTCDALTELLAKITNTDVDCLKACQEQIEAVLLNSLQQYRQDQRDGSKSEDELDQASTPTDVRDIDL
| Variant | normalised enrichment score |
| --- | --- |
| ASKSRVGLFKDDP [Q7G] | 0.458 |
| ASKSRVQLNKDDP [F9N] | 0.327 |
| ASKSRIQLFKDDP [V6I] | -0.36 |
| ADKSRVQLFKDDP [S2D] | -0.0294 |
| ASNSRVQLFKDDP [K3N] | 0.173 |
| ASKSRVQLFTDDP [K10T] | 0.216 |
| ASKSRVQLFKRDP [D11R] | -0.339 |
| ASKYRVQLFKDDP [S4Y] | 0.0223 |

Series 4
Target: Serine/threonine-protein kinase Sgk3 (SGK3, Homo sapiens, UniProt Q96BR1)
Read-out: enzyme activity
Action: inhibitor
Concentration: 0.5 µM
Reference: control
Construct (Q96BR1 1-496): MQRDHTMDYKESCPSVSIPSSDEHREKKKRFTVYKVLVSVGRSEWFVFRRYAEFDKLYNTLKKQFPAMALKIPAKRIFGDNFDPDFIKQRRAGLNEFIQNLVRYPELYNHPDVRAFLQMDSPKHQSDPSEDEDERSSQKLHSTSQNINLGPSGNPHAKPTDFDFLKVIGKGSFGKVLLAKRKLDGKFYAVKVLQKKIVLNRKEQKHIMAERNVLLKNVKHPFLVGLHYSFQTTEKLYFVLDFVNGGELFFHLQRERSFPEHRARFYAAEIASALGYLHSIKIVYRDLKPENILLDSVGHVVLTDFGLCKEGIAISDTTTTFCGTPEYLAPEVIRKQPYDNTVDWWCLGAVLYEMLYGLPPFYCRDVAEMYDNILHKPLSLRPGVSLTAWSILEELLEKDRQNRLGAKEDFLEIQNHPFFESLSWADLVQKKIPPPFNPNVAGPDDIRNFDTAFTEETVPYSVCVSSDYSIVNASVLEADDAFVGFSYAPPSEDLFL
| Structure (SMILES) | remaining activity |
| --- | --- |
| O=C(Nc1ccc(Cl)cc1)c1ccccc1NCc1ccncc1 | 92.5% |
| CCOc1cc2ncnc(Nc3cccc(Br)c3)c2cc1OCC | 96.7% |
| Cn1cc(/C=C2\C(=O)Nc3ccc(S(N)(=O)=O)cc32)c2ccccc21 | 94.7% |
| CCC(=O)Nc1ccc2ncnc(Nc3cccc(Br)c3)c2c1 | 92.8% |
| O=C1NC(=O)/C(=C/c2ccc3nccnc3c2)S1 | 94.3% |
| O=c1cc(N2CCOCC2)oc2c1ccc1ccccc12 | 106% |
| CC(C)[C@H](CO)Nc1nc(Nc2cccc(Cl)c2)c2ncn(C(C)C)c2n1 | 97.6% |
| Nc1[nH]nc2nnc(-c3c(-c4ccccc4)nn4ccccc34)cc12 | 90.2% |
| Cc1nc(Nc2ncc(C(=O)Nc3c(C)cccc3Cl)s2)cc(N2CCN(CCO)CC2)n1 | 102% |
| Cc1ccc(NC(=O)c2ccc(CN3CCN(C)CC3)cc2)cc1Nc1nccc(-c2cccnc2)n1 | 104% |
| COc1cc2ncnc(N3CCN(C(=O)Nc4ccc(Oc5ccccc5)cc4)CC3)c2cc1OC | 97.6% |
| CN(C)CCCn1cc(C2=C(c3c[nH]c4ccccc34)C(=O)NC2=O)c2ccccc21 | 72.8% |
| CC(C)c1nn(-c2c(Cl)cccc2Cl)c2nc(Cc3ccc(OCCO)cc3)[nH]c(=O)c12 | 92.6% |
| COc1cc2ncnc(Nc3ccc(OCc4ccccc4)cc3)c2cc1OC | 105% |
| COc1ccc(Cl)cc1NC(=O)Nc1cc(C)nc2ccccc12 | 108% |
| CCN1/C(=C/C(C)=O)Sc2ccc(OC)cc21 | 93.4% |
| Cn1cnc2cc3c(Nc4cccc(Br)c4)ncnc3cc21 | 107% |
| COc1cc2ncc(-c3ccccc3)nc2cc1OC | 89.7% |
